Measured values from different studies.
Each numbered part is a random draw from the data of one study; scales do not carry over between parts. Changes are numbered by the printed parent chain.

Sample 1 — method: DHFR PCA, deep sequencing; matrix: yeast; added: (+)-ABA 2500 µM; reference: wild-type fitted maximum; reading: higher = stronger binding; quantity: relative binding score
Target: ABI1, truncated, D143A, DHFR fusion (Arabidopsis thaliana)
Setting: methotrexate growth selection, single substitutions
Starting sequence: PYL1, truncated, DHFR fusion (Arabidopsis thaliana); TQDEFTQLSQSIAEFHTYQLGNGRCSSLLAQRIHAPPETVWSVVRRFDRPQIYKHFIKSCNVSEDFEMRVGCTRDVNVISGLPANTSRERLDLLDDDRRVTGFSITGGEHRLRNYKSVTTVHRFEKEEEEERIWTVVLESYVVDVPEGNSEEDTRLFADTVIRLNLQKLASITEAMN; partner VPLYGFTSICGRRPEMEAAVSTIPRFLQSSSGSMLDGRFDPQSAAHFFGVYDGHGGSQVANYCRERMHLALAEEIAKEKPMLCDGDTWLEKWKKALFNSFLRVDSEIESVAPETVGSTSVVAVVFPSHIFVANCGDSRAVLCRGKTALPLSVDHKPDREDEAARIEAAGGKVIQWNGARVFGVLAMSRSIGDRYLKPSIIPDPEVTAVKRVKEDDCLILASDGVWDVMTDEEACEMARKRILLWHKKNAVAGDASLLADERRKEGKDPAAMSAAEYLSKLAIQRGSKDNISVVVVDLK
G71R: 79.3%
W134Y: 109%
K168Y: 86.2%
D159L: 47.9%
V143N: 38.7%
Y115S: -6.43%
L156F: 91.8%
E125W: 96.8%
P146G: 89.1%
S63F: 86.5%
L169F: 9.05%
I12D: 71.9%
L29H: 103%
N61S: 96.7%

Sample 2 — method: RNA Bind-n-Seq; molecule type: RNA; matrix: in vitro; tested at: 365 nM; reference: no-protein control; reading: higher = stronger binding; quantity: RBNS enrichment (R)
Target: RNA binding protein fox-1 homolog 2, RRM domain, GST-SBP tag (RBFOX2, Homo sapiens, UniProt O43251-10, residues 100-194)
Setting: natural RNA segment, single round, ends assumed
All sequences stand within: GGGAGUUCUACAGUCCGACGAUC … UGGAAUUCUCGGGUGCCAA
Target sequence (chain): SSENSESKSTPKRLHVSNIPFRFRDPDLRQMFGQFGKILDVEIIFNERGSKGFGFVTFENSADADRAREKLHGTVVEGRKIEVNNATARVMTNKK
AAAGCUUUCUGUAUUUCAGAGAGACAUAAGUUACUAGAAAGUGAAAAGUGAAUAAAUAAGUCACAGAGAAUGUAAAUUUUGUACAGUAUUAGAAUGUGUAAAUGAAGCUU: 1.78
CCAGUGGGAAGAGAACCGUUCCAUCCUCUGGUGUUAACGCCUUAAUGUCCCCAGUAUUUACUAUGAGUUGCUUCAGGUCAUUUUUUGAUUUUUUGUUUUUUCUUUUGGAA: 0.745
GCUUGCAGUAUGUCCAGCUGGUUGGCAAACACGAGGAAGCUGCAGGGCUGGACCAUGUGGCCAAGCCUGCGCCUCCUGUGGCUUACCUGCCUGCCCACCCUUCGCACAUA: 0.672
UAGAAAAUUUGUUAUUUUGCAACCUCGCUGGACUCUCAGUCUCUGAGCAGUGAAUGAUUCAGUGUUAAAUGUGAUGAAUACUGUAUUUUGUAUUGUUUCAAUUGCAUCUC: 0.9
CAGCUACCUGGGAGGCUGAGGAAGGAGGAUCGCUUGAGCCCAGGAGGUGGAGGCUGCAGUGAGCCAAGAUUGUACCACUGCACUCCAGCCUGGGUGACAGAGCAAGACUC: 0.409
GAACGACAUAAAGAAAGCUCUACAAUCAAAAUGAAUACUUGAUCAAUGAAAUGUCACAUUAUUCAUCCUGAGUCCGAGACUCAAAUUUUCUGCCCCAGCCAAAAUAAUCU: 0.35
CCGCCCCAGCGCUUCACAGCCGCUUCUGGCUUUGCAAGGUGUCUGUCUCGGCCAGUGCCGUGGCCUGCUGGGAAGGGUCAGAGUCCUCACUGUCCCCCGUCUGUCCAGCA: 1.46
GUAUUUAUAGAUGGAAAUAUACUUUAUAUUUUGUAUCAUUGUGCCUAUAGCCUCUGCCACCUUGUAUAAACCCUGAUGUAUGCUAAGUGUUCUGGAUAUGAAUGUAUGUA: 1.01
CCUGUGCUACGGAGGGGUGGAGGGCACUGAGUAGGGCUCUGCCCUAUUCAUCUUGUUGGAACCCCACCCCAUUUUCCCUGACAGAACAUUCCUAAGUCUCAAGGGCUAGU: 0.306
AAAAAGUAUUUUGUUUUGAUUUUUUAACUUGCUGCAUUGUUUUGAUACUUUCUAUUUUUUUGGUCAAAUCAUGUUUAGAAACUUUGGAUGAGUUAAGAAGUCUUAAGUAU: 0.883
GACAGCAAAACAUCUUAAAUGAUGACUGUAGUUAAUCAGAUGUGACCCCUCUAGGGCCCCUGGUUGGAAGGCUCAGGGUUGAAGCGGGGCCUAGGAGCAAGAACAAGAUU: 0.375
GGCCUCCAGACCCCCUCAAUAGACACUGACUAAAGUCAGGCUGGAGUCAUGAGGGUAGUGGGCUAAGUCGAGGGUCCAGCCUCUUCUGCCAGGAAGCCCUUCUUGCUUUU: 0.362

Sample 3 — method: RNA Bind-n-Seq; molecule type: RNA; matrix: in vitro; tested at: not given; reference: input RNA pool; reading: higher = stronger binding; quantity: bound/input enrichment
Target: RING finger protein unkempt homolog, zinc fingers 1-6, GST-SBP tag (UNK, Homo sapiens, UniProt Q9C0B0, residues 30-357)
UniProt Q9C0B0, sequence (30-357, looked up): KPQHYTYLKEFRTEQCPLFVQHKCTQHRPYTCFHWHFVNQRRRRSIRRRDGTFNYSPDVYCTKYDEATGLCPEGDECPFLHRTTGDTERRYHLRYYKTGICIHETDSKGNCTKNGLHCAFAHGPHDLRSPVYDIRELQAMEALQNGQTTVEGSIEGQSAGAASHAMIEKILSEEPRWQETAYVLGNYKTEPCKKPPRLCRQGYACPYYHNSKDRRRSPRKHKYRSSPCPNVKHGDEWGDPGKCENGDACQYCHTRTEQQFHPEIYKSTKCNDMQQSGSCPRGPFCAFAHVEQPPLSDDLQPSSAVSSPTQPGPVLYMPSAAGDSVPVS
Setting: RNA with constant flanks, human and mouse sites, ends assumed
All sequences stand within: GGGAGUUCUACAGUCCGACGAUC … CAACAGAGGAUUGAGCAUCA
AACGAGGCUUCGAAAGCACACGUUAGAAGCAGAUGGAGAUGUGGCUGGGGCAUCAGGAGGACUAGAGAUGGUGGAUGUGAAAGGGAAGCCACCAUGUGGCUCUUGUCUUCAAUGGUAUCC: 0.186 ratio
GAUUUAGUAAAUGAAAUUUGACCAAAUGGAAGAAUCAUGUUAGUUCUGACCUCAAUACUAUAGUAACUUUUAGGCGUGGGUGUAGAAGUUUAUAGGUUUCUAUUGACAGUUAUUGUAAAU: 4.69 ratio
CCUCCAUUUGUUACGUGAGAGAAUGCGUCUGCUGAUCACUGAAGUGUCCCUUUUAGCUUCUGAUUCAUUGGGUUCUGUUGGGCAUCUUUAAAUCCACCUUAACCUGAGGAAUGUAUGUGG: 0.119 ratio
UUUUUUCAGUAAGACUUUCAGGCACUUCUUCCCUUUUGAUUUCUUUUUUUUCCUCUGUUUUUUAGCAUGCAAGUAUGUUGGUACGUUAUGUCCUGGUUUAAAAAGGAUUAAAAUUUUAAA: 0.826 ratio
UUGUGUCUGCAGGAACCUGGAGUAUUCCCACAGGAGGUGGCUGAUCGACUGCUUCGGACCAUGGCUUUUCAUGGUCUAUUGAAUGAUGGAACUGUGGGUAUUUUUAGGGGCAACCAGAUG: 0.417 ratio
UGGGUGACAGAGCGAGACUUAUAGAUAGAUAGAUAGAUAGAUGGAUAGAUAGAUAGAUAGAUAGAUAGAUAGAUAAACGGAAUUGGAGCCAUUUUGCUUUAAGUGAAUGGCAGUCCCUUG: 237 ratio
CUAGUUGAACAUAUUCUUAAAUAUGAGGAAUCUCUAGCUGACUCAGACAAUAAAGGUGUAAAUUCUGGAAGAUUGGUAGCUUGUAUAACCACUUUGUUCUUAUUCAGCAAAAUAAGACCC: 0.323 ratio
GUGAUUAUUGAAGAAUCUAAGCCAGAAAAAGUCAAGGUGAUGUUAGAGAAGUUUGUUGAAGAAUGCAAGUUUCCCCCAGUGCCAGAUGCUGUUUGUUGCUAUCAGAAGUGCCGUGGAUAU: 0.37 ratio
CAGCUUUCAUUACCCCUGAACUUUCUGGGAACUGUAUAUAGAGAGACUAGACAAGCACUCAUAGAUAUGAACACCUUGUUUACUCUACUCAAGGUAGACACCCAAAUUAAAGACAAAGUG: 0.532 ratio
AUUUUGUGAGGUACCACUACAACGGGACGUUCCUGGACGGAACUCUGUUUGAUUCGAGUCACAAUCGCAUGAAAACAUAUGACACGUAUGUGGGAAUUGGCUGGCUGAUUCCUGGAAUGG: 0.17 ratio
AAAAUAAUUAAAAACCCAAUGGACUUGUCAACCAUCAAGAAAAGACUUCAGGAGGAUUAUUGCAUGUAUACAAAGCCUGAAGACUUUGUAGCUGAUUUUAGAUUGAUCUUUCAAAACUGU: 0.749 ratio

Sample 4 — method: aptamer microarray, sandwich; molecule type: DNA with 2'F-ANA; matrix: in vitro; tested at: 200 nM; added: Cy3 exosite-II aptamer, 400 nM; reading: higher = stronger binding; quantity: mean fluorescence intensity; strand: GGTTGGTGTGGTTGG
Target: Prothrombin, mature alpha-thrombin (F2, Homo sapiens, UniProt P00734)
Setting: whole 15-mer aptamer, many near background
2'F-ANA at 3 4 5 6 7 9 10 11 12 13: 51.1 a.u.
2'F-ANA at 1 2 4 6 7 8 10 13 14 15: 47.8 a.u.
2'F-ANA at 2 3 4 5 6 9 15: 80.8 a.u.
2'F-ANA at 2 5 6 7 8 9 13: 55 a.u.
2'F-ANA at 1 3 6 7 8 11 12 13 14 15: 108 a.u.
2'F-ANA at 1 2 5 6 8 11 12: 88.5 a.u.
2'F-ANA at 1 9 11 12 15: 318 a.u.
2'F-ANA at 4 5 8 9 12 13 14: 81.2 a.u.
2'F-ANA at 2 4 5 6 7 9 10 11: 48.7 a.u.
2'F-ANA at 1 2 3 4 5 6 7 11 13 14: 51 a.u.
2'F-ANA at 3 4 9 10 11 13 15: 234 a.u.
2'F-ANA at 1 2 3 4 5 7 9 10 14: 49.1 a.u.
2'F-ANA at 2 3 5 7 9 12 13: 175 a.u.
2'F-ANA at 1 2 4 5 6 7 9 10 13 14 15: 52.7 a.u.
2'F-ANA at 1 4 5 8 10 11 12 14 15: 48.1 a.u.
2'F-ANA at 2 3 4 5 6 7 10 12 13 14 15: 79.8 a.u.
2'F-ANA at 1 2 3 4 5 8 9 10 15: 56.6 a.u.
2'F-ANA at 1 2 3 4 6 9 10 12 14 15: 50.6 a.u.
2'F-ANA at 2 3 7 9 11 12 14 15: 400 a.u.
2'F-ANA at 2 5 6 9 11 14 15: 49.2 a.u.
2'F-ANA at 1 2 4 5 6 7 8 10: 48.1 a.u.

Sample 5 — method: protein binding microarray; molecule type: double-stranded DNA, one strand shown; matrix: in vitro; tested at: not given; reference: not given; reading: higher = stronger binding; quantity: E-score
Target: Histone acetyltransferase KAT6A, winged helix 2, GST fusion (KAT6A, Homo sapiens, UniProt Q92794, residues 85-181)
Setting: 8-mer, flanks averaged, mean of 2 arrays, mostly near background
Target sequence (chain): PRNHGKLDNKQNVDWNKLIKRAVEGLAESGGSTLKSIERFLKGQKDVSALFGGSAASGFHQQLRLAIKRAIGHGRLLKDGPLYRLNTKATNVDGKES
AACTACTG: -0.0291
CCTACAAC: 0.00323
TATTACCA: 0.0381
CGAGGGAA: -0.0117
CCTTAGGA: 0.0207
AGACTGAT: -0.0597
ACGACTCC: -0.0707
GTTTCCCA: 0.113
GTATTTGA: -0.0616
CGTTGTTC: -0.0559
AAATACGA: 0.0764
AGGTAACC: -0.166
CCCCCCGC: 0.139
CTGTCAAG: 3.5e-05
AGAAAAAT: 0.19
CTACATAA: -0.208
GAGCCACA: -0.014
CTTTCAAA: 0.148
GCAACGCA: 0.103
GGGTTTTA: -0.106
CTTCCCTC: -0.0463
AATAGATA: -0.123
AGACTACC: -0.197
ATGCATGC: 0.109
AATCCTCA: -0.0695

Excerpt of the above (sample 5):
AACTACTG: -0.0291
AATAGATA: -0.123
CCCCCCGC: 0.139
AATCCTCA: -0.0695
CTTCCCTC: -0.0463
CCTTAGGA: 0.0207
AAATACGA: 0.0764
AGGTAACC: -0.166
CTTTCAAA: 0.148
CTGTCAAG: 3.5e-05
